Assay results pooled from the literature.
Every numbered part comes from another study and shows a few of its results, in no order. Values joined by “and” are separate records of one study, mostly repeats; a detail may differ.
Sequence of UniProt Q00526 (whole entry, looked up): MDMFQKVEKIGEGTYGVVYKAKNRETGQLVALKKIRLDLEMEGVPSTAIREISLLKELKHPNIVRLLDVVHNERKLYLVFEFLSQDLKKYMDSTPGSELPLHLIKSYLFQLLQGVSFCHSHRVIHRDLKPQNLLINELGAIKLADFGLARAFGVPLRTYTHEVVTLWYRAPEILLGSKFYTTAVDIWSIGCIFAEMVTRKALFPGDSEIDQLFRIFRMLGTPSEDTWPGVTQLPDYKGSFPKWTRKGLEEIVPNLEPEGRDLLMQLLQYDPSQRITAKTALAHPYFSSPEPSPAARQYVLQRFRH
Sequence of UniProt P61075 (whole entry, looked up): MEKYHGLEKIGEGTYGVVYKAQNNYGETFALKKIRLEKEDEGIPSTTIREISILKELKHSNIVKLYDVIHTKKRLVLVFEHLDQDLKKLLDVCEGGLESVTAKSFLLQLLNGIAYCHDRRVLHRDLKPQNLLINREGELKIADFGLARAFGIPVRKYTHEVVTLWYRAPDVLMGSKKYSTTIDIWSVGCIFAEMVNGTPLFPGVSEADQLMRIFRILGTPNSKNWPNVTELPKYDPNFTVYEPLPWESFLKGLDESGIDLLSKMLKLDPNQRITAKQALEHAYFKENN
Sequence of UniProt Q08881 (whole entry, looked up): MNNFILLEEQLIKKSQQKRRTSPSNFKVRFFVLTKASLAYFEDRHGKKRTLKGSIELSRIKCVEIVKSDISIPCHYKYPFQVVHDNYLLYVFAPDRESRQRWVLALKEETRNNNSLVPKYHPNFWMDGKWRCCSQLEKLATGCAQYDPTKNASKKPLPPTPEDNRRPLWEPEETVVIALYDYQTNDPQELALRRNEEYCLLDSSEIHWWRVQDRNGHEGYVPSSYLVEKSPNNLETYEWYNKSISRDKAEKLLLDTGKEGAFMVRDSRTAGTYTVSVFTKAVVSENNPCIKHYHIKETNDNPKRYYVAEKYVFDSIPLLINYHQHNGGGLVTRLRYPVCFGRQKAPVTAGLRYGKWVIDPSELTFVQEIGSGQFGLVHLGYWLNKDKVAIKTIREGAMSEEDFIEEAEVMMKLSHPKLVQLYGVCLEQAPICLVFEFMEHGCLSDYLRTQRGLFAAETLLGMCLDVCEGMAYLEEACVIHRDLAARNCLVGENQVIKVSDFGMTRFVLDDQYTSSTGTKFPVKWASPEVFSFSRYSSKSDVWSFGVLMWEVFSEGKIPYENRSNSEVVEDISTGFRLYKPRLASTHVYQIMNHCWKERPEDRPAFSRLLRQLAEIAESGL
Sequence of UniProt P9WI81 (whole entry, looked up): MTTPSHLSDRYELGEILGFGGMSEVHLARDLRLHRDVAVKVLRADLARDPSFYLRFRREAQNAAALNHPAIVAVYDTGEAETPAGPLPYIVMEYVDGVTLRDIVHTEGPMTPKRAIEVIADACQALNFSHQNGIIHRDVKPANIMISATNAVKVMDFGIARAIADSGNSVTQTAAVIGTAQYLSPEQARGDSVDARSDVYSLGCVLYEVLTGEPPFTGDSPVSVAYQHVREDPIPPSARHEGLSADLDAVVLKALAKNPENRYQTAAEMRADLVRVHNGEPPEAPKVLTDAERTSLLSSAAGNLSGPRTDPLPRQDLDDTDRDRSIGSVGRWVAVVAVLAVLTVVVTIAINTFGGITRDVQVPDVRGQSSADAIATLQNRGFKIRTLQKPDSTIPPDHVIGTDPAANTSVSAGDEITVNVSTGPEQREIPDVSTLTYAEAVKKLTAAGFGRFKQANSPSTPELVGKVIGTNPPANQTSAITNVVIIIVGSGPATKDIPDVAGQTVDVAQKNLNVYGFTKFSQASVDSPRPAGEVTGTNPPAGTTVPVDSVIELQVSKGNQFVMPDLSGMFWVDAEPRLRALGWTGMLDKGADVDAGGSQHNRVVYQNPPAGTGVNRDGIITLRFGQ
Sequence of UniProt Q8NG66 (whole entry, looked up): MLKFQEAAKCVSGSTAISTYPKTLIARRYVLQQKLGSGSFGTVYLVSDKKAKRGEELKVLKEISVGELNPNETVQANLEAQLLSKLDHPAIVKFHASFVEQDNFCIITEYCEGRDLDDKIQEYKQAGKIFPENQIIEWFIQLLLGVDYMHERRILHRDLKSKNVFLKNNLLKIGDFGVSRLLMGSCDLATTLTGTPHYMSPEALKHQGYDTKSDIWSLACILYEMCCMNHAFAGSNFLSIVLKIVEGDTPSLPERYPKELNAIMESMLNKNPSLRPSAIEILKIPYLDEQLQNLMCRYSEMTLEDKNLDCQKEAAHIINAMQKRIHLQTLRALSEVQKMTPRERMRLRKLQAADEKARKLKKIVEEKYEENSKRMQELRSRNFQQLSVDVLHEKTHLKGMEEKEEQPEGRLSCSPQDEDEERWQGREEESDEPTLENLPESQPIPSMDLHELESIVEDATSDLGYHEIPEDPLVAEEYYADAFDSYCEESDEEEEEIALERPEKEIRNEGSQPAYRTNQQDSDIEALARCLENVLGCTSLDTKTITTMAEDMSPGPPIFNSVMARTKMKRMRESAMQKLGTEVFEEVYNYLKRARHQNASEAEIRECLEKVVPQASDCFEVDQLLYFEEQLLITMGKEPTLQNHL
Sequence of UniProt P51817 (whole entry, looked up): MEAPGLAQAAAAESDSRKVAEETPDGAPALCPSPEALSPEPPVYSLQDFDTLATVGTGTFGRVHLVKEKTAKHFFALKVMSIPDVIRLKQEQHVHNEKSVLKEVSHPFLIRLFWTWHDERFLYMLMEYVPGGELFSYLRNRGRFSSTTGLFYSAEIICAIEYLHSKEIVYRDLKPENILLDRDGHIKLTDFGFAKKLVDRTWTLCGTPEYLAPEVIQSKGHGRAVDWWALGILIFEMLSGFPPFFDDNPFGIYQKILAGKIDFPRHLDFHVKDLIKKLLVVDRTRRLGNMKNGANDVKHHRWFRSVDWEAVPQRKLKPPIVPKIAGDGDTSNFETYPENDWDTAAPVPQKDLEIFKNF
Sequence of UniProt Q9UM73 (whole entry, looked up): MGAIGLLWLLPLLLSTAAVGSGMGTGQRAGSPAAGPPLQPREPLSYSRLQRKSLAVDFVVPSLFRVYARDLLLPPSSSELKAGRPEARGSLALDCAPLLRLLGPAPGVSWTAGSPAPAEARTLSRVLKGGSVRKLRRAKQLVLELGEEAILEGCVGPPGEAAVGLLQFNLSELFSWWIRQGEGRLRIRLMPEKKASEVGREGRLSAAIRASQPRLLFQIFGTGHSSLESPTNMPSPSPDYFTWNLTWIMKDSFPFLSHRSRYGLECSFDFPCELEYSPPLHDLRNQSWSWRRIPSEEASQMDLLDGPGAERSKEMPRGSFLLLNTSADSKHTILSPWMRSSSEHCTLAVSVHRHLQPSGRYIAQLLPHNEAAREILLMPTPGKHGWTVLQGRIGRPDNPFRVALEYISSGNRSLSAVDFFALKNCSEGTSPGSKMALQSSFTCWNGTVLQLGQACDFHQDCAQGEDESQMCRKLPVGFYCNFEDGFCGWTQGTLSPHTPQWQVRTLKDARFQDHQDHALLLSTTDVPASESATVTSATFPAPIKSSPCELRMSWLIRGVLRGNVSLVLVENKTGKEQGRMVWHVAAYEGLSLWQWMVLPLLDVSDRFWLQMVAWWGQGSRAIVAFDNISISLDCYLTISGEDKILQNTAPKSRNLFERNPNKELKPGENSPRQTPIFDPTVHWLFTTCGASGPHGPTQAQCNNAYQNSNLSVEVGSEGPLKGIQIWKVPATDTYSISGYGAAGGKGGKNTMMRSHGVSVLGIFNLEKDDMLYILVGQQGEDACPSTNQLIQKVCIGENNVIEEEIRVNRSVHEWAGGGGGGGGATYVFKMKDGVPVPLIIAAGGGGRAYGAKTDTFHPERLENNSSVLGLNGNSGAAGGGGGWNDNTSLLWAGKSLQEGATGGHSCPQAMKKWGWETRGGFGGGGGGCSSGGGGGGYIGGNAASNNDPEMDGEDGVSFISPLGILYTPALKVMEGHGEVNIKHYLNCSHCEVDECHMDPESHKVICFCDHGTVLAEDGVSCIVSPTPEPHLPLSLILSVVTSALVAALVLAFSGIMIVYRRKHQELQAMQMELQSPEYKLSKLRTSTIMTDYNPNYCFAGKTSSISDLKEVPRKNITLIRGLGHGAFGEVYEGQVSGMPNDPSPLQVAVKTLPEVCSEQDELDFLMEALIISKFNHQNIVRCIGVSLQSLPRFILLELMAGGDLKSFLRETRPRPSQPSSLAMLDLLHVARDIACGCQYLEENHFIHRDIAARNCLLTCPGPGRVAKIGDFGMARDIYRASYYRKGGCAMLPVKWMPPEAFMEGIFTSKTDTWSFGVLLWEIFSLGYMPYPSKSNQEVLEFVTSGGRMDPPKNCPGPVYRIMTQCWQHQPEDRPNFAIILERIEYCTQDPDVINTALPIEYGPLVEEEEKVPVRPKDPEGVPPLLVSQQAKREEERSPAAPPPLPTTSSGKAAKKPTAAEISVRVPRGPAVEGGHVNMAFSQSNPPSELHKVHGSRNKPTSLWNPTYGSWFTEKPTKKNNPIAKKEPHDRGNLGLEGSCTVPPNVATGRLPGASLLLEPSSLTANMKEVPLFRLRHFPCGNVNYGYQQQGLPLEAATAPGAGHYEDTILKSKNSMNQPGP

Block 1 — cell line: mouse MPNST tumor cells; method: high-content immunofluorescence imaging; refers to: nuclear SOX9; tested at: 10 µM; time: 12 h; notes: mean of 2 replicates; baseline: DMSO control; direction: higher = more nuclear SOX9; quantity: nuclear SOX9 intensity
Structure (SMILES) = COc1ccc2c3c([nH]c2c1)[C@H](CC(C)C)N1C(=O)[C@H](CCC(=O)OC(C)(C)C)NC(=O)[C@@H]1C3; value = 149 % of DMSO
Structure (SMILES) = O[C@H]1[C@H](O)[C@@H](O)CN2CC[C@H](O)[C@H]12; value = 96.6 % of DMSO
Structure (SMILES) = Clc1ccc(OC[C@H]2CCN2)cn1; value = 102 % of DMSO
Structure (SMILES) = CN(C)[C@@H]1C(=O)C(C(N)=O)=C(O)[C@@]2(O)C(=O)C3=C(O)c4c(O)ccc(Cl)c4[C@@](C)(O)[C@H]3C[C@@H]12; value = 104 % of DMSO
Structure (SMILES) = O=C(O)c1nn(Cc2ccc(Cl)cc2Cl)c2ccccc12; value = 92.3 % of DMSO

Block 2 — observed: RNA clamping; method: fluorescence polarization; tested at: concentration not given; notes: mean of two replicates; with: FAM-labelled poly r(AG)8 RNA; quantity: fluorescence polarization change
Target: Eukaryotic initiation factor 4A-I (EIF4A1, Homo sapiens, UniProt P60842)
Sequence of UniProt P60842 (whole entry, looked up): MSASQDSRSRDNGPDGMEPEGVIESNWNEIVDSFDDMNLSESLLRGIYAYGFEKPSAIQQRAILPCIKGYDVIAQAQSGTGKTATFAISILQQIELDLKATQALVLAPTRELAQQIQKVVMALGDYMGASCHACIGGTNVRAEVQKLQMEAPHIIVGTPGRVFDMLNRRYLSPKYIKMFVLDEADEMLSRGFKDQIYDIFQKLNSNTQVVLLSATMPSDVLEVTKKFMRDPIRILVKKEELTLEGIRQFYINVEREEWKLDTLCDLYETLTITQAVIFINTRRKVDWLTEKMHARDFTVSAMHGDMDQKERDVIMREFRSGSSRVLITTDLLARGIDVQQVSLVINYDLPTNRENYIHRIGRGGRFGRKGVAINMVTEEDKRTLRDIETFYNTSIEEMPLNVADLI
SMILES = COc1ccc([C@@]23Oc4cc(OC)cc(OC)c4[C@]2(O)c2nc(-c4cccc(C)c4)[nH]c(=O)c2[C@H]3c2ccccc2)cc1; value = 17.8 mP
SMILES = COC(=O)[C@H]1[C@H](c2ccccc2)[C@@]2(c3ccc(OC)cc3)Oc3cc(OC)cc(OC)c3[C@]1(O)[C@H]2O; value = -1.6 mP
SMILES = COc1ccc([C@@]23Oc4cc(OC)cc(OC)c4[C@]2(O)c2nc(-c4ccc(F)cc4)[nH]c(=O)c2[C@H]3c2ccccc2)cc1; value = 13.3 mP
SMILES = C#CCOc1nc(-c2ccccc2)nc2c1[C@@H](c1ccccc1)[C@]1(c3ccc(OC)cc3)Oc3cc(OC)cc(OC)c3[C@]21OCC#C; value = 13.8 mP
SMILES = COC(=O)[C@@H]1[C@@H](c2ccccc2)C2(c3ccc(OC)cc3)C(=O)C1(O)c1ccccc1N2C (stereo partly shown); value = -0.5 mP
SMILES = COC(=O)[C@@H]1[C@@H](c2ccccc2)[C@]2(c3ccc(Br)cc3)Oc3cc(OC)cc(OC)c3[C@@]1(O)C2(O)O; value = 4.8 mP
SMILES = COc1ccc([C@@]23Oc4cc(OC)cc(OC)c4[C@]2(O)c2nc(Cc4ccccc4)[nH]c(=O)c2[C@H]3c2ccccc2)cc1; value = 32.5 mP
SMILES = COC(=O)[C@@H]1[C@@H](c2ccccc2)[C@]2(c3ccc(OC)cc3)Oc3cc(OC)cc(OC)c3[C@@]23N=C(C2CC2)N[C@@]13O; value = 85.7 mP and 61.1 mP
SMILES = COCC1=N[C@@]2(O)[C@H](C(=O)OC)[C@@H](c3ccccc3)[C@]3(c4ccc(OC)cc4)Oc4cc(OC)cc(OC)c4[C@]23N1; value = 72.7 mP and 55.5 mP
SMILES = COc1ccc([C@@]23Oc4cc(OC)cc(OC)c4[C@@]24NC(C2CC2)=N[C@@]4(O)[C@H](C(=O)N(C)OC)[C@H]3c2ccccc2)cc1; value = 79.1 mP

Block 3 — observed: enzyme activity; action: inhibitor; tested at: 0.5 µM; baseline: control; quantity: remaining activity
Compound: O=C1NC(=O)c2c1c1c3ccccc3n3c1c1c2c2ccccc2n1[C@H]1CC[C@@H]3O1
target = Serine/threonine-protein kinase MRCK alpha (CDC42BPA, Homo sapiens, UniProt Q5VT25); value = 84%
target = Tyrosine-protein kinase ITK/TSK (ITK, Homo sapiens, UniProt Q08881); value = 8.29%
target = Serine/threonine-protein kinase N1 (PKN1, Homo sapiens, UniProt Q16512); value = 2.68%
target = cAMP-dependent protein kinase catalytic subunit PRKX (PRKX, Homo sapiens, UniProt P51817); value = 17.5%
target = Proto-oncogene tyrosine-protein kinase Src (SRC, Homo sapiens, UniProt P12931); value = 69.5%
target = Cyclin-dependent kinase 3, with cyclin E (CDK3, Homo sapiens, UniProt Q00526); value = 71.5%
target = MAP/microtubule affinity-regulating kinase 3 (MARK3, Homo sapiens, UniProt P27448); value = 8.53%
target = RAC-alpha serine/threonine-protein kinase (AKT1, Homo sapiens, UniProt P31749); value = 63.9%
target = Serine/threonine-protein kinase Nek11 (NEK11, Homo sapiens, UniProt Q8NG66); value = 60.6%
target = ALK tyrosine kinase receptor (ALK, Homo sapiens, UniProt Q9UM73); value = 36.9%
target = Tyrosine-protein kinase Fer (FER, Homo sapiens, UniProt P16591); value = 5.39%

Other studies, line by line — observed: cell-free assay; method: competition with immobilised ligand; tested at: 1 µM
Structure (SMILES) = O=C(NCc1ncc(C(F)(F)F)cc1Cl)c1ccc2c(c1)C1(CCS(=O)(=O)CC1)[C@@H](C1CC1)N2S(=O)(=O)c1ccc(F)cc1; target = Serine/threonine-protein kinase PknB (pknB, Mycobacterium tuberculosis, UniProt P9WI81); remaining binding = 84%
Structure (SMILES) = CS(=O)(=O)c1cc(C2(NC(=O)c3cncc4c3cnn4-c3ccc(F)cc3)CC2)ccn1; target = Cyclin-dependent kinase 2 homolog (CRK2, Plasmodium falciparum, UniProt P61075); remaining binding = 100%
